Experimental data collected from several papers.
Parts stem from different laboratories: compare values within a part only. Changes are numbered by the printed parent chain.

Study 1
Target: CEP164, C-terminal peptide (human)
Method: DHFR complementation, deep sequencing
Sample: yeast
Setting: single substitutions, model-inferred values
Baseline: wild type
Direction: higher = weaker binding
Parent: PDZK1, PDZ domain 2 (human); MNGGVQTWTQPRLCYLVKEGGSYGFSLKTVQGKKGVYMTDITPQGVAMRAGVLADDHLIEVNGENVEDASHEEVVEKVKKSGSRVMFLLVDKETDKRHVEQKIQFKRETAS; partner HNRVKVYRF
| Substitution | binding free energy change |
| --- | --- |
| T39L | 0.303 kcal/mol |
| V30L | 0.425 kcal/mol |
| T109P | -0.145 kcal/mol |
| G51R | 1.38 kcal/mol |
| G82E | 0.597 kcal/mol |
| K18P | 1.24 kcal/mol |
| V46A | 0.249 kcal/mol |
| K28Y | -0.439 kcal/mol |
| E19N | 0.109 kcal/mol |
| E108V | -0.174 kcal/mol |
| D55R | 0.909 kcal/mol |
| Q44W | 0.00501 kcal/mol |
| G82I | 0.77 kcal/mol |
| C14L | 0.287 kcal/mol |
| R107K | -0.219 kcal/mol |
| G82C | 0.788 kcal/mol |
| D55K | 0.621 kcal/mol |
| I103Y | -0.146 kcal/mol |
| T7K | -0.145 kcal/mol |
| E72T | 0.53 kcal/mol |
| G4Q | -0.045 kcal/mol |
| G3L | 0.0504 kcal/mol |
| V61C | 0.484 kcal/mol |
| V75W | 2.82 kcal/mol |
| V66M | 0.222 kcal/mol |

Study 2
Molecule: PhoQ, residues 284 288 289 292 302 303 ALSMDL
Method: Sort-seq
Measured: YFP reporter
Sample: E. coli
Setting: PhoQ-PhoP variant library
Together with: 10 µM Mg2+
Baseline: high Mg2+ state
Direction: higher = stronger signaling
| target | fold induction |
| --- | --- |
| PhoP, residues 12 14 15 18 19 SFCSL (Escherichia coli, UniProt P23836) | 6.71 |
| PhoP, residues 12 14 15 18 19 AYFRS (Escherichia coli, UniProt P23836) | 22 |
| PhoP, residues 12 14 15 18 19 HHYTI (Escherichia coli, UniProt P23836) | 17.2 |

Study 3
Target: ABI1, truncated, D143A, DHFR fusion (Arabidopsis thaliana)
Method: DHFR PCA, deep sequencing
Sample: yeast
Setting: methotrexate growth selection, single substitutions
Together with: (+)-ABA 200 µM
Baseline: wild-type fitted maximum
Direction: higher = stronger binding
Parent: PYL1, truncated, DHFR fusion (Arabidopsis thaliana); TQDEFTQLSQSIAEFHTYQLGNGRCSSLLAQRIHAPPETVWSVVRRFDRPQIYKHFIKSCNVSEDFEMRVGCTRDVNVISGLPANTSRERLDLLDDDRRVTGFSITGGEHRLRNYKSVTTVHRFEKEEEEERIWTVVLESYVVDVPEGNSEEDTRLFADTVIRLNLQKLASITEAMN
| Substitution | relative binding score |
| --- | --- |
| A158Q | 16.1% |
| S140V | -3.66% |
| S11G | 90% |
| S9I | 76.7% |
| R98G | 93.7% |
| Q51L | 50.4% |
| L138E | -4.49% |
| I79D | 53.6% |
| I133W | 106% |
| I172D | 7.82% |
| E14K | 95.8% |
| L169S | 1.08% |
| L82D | -0.925% |
| T119E | -1.46% |
| E38P | 73.8% |
| V121C | 83.3% |
| E174Y | 69.8% |

Study 4
Target: PABPC1L2, full length, GST fusion (mouse, UniProt A0ABA7IW68)
Method: RNAcompete
Molecule type: RNA
Sample: in vitro
Tested at: 20 nM
Setting: 7-mer, probes averaged, single round
Baseline: mean of 7-mers
Direction: higher = stronger binding
Residues (chain): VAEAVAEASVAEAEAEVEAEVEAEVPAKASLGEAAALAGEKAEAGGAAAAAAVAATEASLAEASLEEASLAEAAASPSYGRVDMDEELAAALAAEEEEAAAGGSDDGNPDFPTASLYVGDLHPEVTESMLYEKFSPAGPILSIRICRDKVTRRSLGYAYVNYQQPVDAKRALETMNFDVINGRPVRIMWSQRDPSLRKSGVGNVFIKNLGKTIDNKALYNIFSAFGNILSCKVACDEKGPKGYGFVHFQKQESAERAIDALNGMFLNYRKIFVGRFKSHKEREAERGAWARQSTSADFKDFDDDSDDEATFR
| Sequence | 7-mer Z-score |
| --- | --- |
| GGUUCCU | -0.173 |
| UCGCCGU | -0.434 |
| AGUAUCA | -0.0428 |
| AAGCGUA | 0.0841 |
| GGUGGGU | 0.095 |
| AACCUAU | 0.0587 |
| AAUAGAC | 0.302 |
| GGUACUA | 0.117 |
| GCAAGUG | -0.0935 |
| ACUCAAU | -0.255 |
| GUAACUG | -0.166 |
| GGGGACG | 0.36 |
| ACUGCAC | -0.126 |
| CACGGAC | 0.0533 |
| CCACAAC | -0.258 |
| UCCGUAG | -0.291 |
| UCCUCGC | -0.494 |
| UGUACUG | -0.3 |

Study 5
Target: Ras GTPase-activating protein-binding protein 1, C-terminal RGG region (G3BP1, Homo sapiens, UniProt Q13283)
Chain of UniProt Q13283 (whole entry, looked up): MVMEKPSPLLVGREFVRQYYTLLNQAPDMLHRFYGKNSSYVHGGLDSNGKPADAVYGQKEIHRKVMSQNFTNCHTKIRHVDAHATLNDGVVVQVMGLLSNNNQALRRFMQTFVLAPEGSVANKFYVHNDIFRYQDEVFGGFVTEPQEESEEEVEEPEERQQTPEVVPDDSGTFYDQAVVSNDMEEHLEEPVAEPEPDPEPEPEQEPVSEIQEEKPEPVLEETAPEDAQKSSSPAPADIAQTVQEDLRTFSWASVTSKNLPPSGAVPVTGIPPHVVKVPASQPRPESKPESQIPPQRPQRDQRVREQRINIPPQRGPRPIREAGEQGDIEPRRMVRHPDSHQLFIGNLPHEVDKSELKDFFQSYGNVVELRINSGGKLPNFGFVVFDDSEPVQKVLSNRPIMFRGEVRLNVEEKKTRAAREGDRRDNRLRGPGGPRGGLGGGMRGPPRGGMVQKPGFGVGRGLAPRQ
Method: RNA Bind-n-Seq
Molecule type: RNA
Sample: in vitro
Tested at: 1 µM
Setting: whole 134-nt RNA, ends assumed
Together with: 150 mM KCl
Baseline: input library
Direction: higher = stronger binding
| Sequence | log2 enrichment |
| --- | --- |
| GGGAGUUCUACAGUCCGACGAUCCCUCAAGUCCUGUGCUACACAUCGUAUGUACCGAAUCGGGUUGGUUGGUUGGGAAAGUAUUAUGUUACGCCGUUCGGAUCUGCACUUCCAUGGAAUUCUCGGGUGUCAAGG | -1.02 |
| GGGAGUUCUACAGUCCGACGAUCAAGUCCUGUGCUACACAUCGUAUGUACCGAAUCGGGAGGGAAAGGGAAAAAAAGGGAAAGUAUUAUGUUACGCCGUUCGGAUCUGCACUUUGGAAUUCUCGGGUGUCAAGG | 0.0771 |
| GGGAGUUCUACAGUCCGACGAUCCCUGUGCUACACAUCGUAUGUACCGAAUCGGGGUUUUUGGGGUUUUUUUGGGGUUUGGGGAAAGUAUUAUGUUACGCCGUUCGGAUCUGCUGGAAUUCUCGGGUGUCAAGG | 0.503 |
| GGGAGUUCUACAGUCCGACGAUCGUCCUGUGCUACACAUCGUAUGUACCGAAUCAAAUUUUUAAACCCCCCCAAAUUUAAAAAAGUAUUAUGUUACGCCGUUCGGAUCUGCACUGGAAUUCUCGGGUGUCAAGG | -0.192 |
| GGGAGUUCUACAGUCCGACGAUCAGUCCUGUGCUACACAUCGUAUGUACCGAAUCGGUUUUUGGUUUUUGGUUUUUGGGGAAAGUAUUAUGUUACGCCGUUCGGAUCUGCACUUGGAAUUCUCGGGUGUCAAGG | -1.61 |
| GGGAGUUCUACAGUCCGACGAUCGUCCUGUGCUACACAUCGUAUGUACCGAAUCGGGAGGGAAAAAAAGGGUUUUUUUGGGAAAGUAUUAUGUUACGCCGUUCGGAUCUGCACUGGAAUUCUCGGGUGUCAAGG | -0.324 |
| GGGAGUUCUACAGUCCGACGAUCCCUGUGCUACACAUCGUAUGUACCGAAUCGGGGAGGGGAAAAAAAGGGGUUUUUUUGGGGAAAGUAUUAUGUUACGCCGUUCGGAUCUGCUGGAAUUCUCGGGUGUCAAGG | 0.504 |
| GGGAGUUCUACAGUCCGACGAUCGUCCUGUGCUACACAUCGUAUGUACCGAAUCGGGUUUUUGGUUUUUGGGGUUUUUGGGAAAGUAUUAUGUUACGCCGUUCGGAUCUGCACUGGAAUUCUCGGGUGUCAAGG | -0.827 |
| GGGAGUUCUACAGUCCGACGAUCCACAGACAACACGCACCCACACAGACACAGAGGGAAGGGGUUGGGAUGGGGACAGGGUGCACAGCAGGGCGGGGUAGGACCCGAGCCCCUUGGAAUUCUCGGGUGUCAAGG | -1.06 |
| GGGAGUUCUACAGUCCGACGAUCCUCAAGUCCUGUGCUACACAUCGUAUGUACCGAAUCGGUUGGUUGGGUUGGGGAAAGUAUUAUGUUACGCCGUUCGGAUCUGCACUUCCAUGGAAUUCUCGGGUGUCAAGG | -0.96 |

Study 6
Target: CCNE1, cyclin fold, Cln2 fusion (human)
Method: yeast growth competition, sequencing
Sample: yeast
Setting: strong parent motif
Baseline: not given
Direction: higher = stronger binding
Parent: RBL2 docking peptide (human); STTRRRLFVENDS
| Substitution | normalised enrichment score |
| --- | --- |
| N11Y | 6.32 |
| T2A | 5.6 |
| R4L | 0.365 |
| S1T | 5.8 |
| R5Y | 0.84 |
| N11I | 3.77 |
| F8M | -0.144 |
| L7I | 2.03 |
| N11K | 5.51 |
| F8H | -0.379 |
| L7V | 0.0681 |
| D12P | 5.18 |
| R5L | 0.339 |
| S1K | 5.73 |
| S1W | 4.61 |
| T3M | 2.47 |
| E10W | 1.42 |
| V9S | 5.25 |

Repeated from above (study 5):
| Sequence | log2 enrichment |
| --- | --- |
| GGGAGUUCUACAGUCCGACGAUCCCUCAAGUCCUGUGCUACACAUCGUAUGUACCGAAUCGGGUUGGUUGGUUGGGAAAGUAUUAUGUUACGCCGUUCGGAUCUGCACUUCCAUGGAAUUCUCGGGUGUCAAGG | -1.02 |
| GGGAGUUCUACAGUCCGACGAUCAAGUCCUGUGCUACACAUCGUAUGUACCGAAUCGGGAGGGAAAGGGAAAAAAAGGGAAAGUAUUAUGUUACGCCGUUCGGAUCUGCACUUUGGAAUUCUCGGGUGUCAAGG | 0.0771 |
| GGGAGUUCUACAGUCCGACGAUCCCUGUGCUACACAUCGUAUGUACCGAAUCGGGGUUUUUGGGGUUUUUUUGGGGUUUGGGGAAAGUAUUAUGUUACGCCGUUCGGAUCUGCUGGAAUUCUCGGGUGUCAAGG | 0.503 |
| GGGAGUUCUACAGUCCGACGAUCGUCCUGUGCUACACAUCGUAUGUACCGAAUCAAAUUUUUAAACCCCCCCAAAUUUAAAAAAGUAUUAUGUUACGCCGUUCGGAUCUGCACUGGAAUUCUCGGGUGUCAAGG | -0.192 |
| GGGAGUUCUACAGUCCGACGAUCAGUCCUGUGCUACACAUCGUAUGUACCGAAUCGGUUUUUGGUUUUUGGUUUUUGGGGAAAGUAUUAUGUUACGCCGUUCGGAUCUGCACUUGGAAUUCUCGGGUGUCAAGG | -1.61 |
| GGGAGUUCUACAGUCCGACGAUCGUCCUGUGCUACACAUCGUAUGUACCGAAUCGGGAGGGAAAAAAAGGGUUUUUUUGGGAAAGUAUUAUGUUACGCCGUUCGGAUCUGCACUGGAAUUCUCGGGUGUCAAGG | -0.324 |
| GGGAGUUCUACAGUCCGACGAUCCCUGUGCUACACAUCGUAUGUACCGAAUCGGGGAGGGGAAAAAAAGGGGUUUUUUUGGGGAAAGUAUUAUGUUACGCCGUUCGGAUCUGCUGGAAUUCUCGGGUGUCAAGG | 0.504 |
| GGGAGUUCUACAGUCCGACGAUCGUCCUGUGCUACACAUCGUAUGUACCGAAUCGGGUUUUUGGUUUUUGGGGUUUUUGGGAAAGUAUUAUGUUACGCCGUUCGGAUCUGCACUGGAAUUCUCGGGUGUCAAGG | -0.827 |
| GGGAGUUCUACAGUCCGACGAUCCACAGACAACACGCACCCACACAGACACAGAGGGAAGGGGUUGGGAUGGGGACAGGGUGCACAGCAGGGCGGGGUAGGACCCGAGCCCCUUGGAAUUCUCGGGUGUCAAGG | -1.06 |
| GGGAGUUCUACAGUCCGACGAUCCUCAAGUCCUGUGCUACACAUCGUAUGUACCGAAUCGGUUGGUUGGGUUGGGGAAAGUAUUAUGUUACGCCGUUCGGAUCUGCACUUCCAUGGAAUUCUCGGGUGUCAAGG | -0.96 |
